# Experimental data collected from several papers.
# Parts stem from different laboratories: compare values within a part only.
# Chain of UniProt P61075 (whole entry, looked up): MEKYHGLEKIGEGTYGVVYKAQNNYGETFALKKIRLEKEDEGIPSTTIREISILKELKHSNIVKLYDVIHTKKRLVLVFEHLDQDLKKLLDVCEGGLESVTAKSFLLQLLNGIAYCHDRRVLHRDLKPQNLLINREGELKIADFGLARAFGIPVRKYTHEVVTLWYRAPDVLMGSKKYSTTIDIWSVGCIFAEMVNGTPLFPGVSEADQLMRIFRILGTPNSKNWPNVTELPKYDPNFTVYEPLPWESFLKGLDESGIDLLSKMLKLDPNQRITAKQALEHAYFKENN
# Chain of UniProt P28335 (whole entry, looked up): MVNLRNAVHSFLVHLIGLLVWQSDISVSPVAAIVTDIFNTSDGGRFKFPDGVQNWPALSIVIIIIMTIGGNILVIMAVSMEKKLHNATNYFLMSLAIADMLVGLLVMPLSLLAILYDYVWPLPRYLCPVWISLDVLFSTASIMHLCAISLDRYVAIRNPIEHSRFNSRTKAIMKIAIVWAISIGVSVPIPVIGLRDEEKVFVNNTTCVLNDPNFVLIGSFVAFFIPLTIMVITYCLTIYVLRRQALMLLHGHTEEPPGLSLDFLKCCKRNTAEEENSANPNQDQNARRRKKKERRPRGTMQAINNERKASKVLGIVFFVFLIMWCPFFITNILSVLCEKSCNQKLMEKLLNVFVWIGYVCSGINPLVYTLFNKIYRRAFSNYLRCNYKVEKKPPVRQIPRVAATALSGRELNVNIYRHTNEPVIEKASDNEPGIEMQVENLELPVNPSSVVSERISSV
# Chain of UniProt P28223 (whole entry, looked up): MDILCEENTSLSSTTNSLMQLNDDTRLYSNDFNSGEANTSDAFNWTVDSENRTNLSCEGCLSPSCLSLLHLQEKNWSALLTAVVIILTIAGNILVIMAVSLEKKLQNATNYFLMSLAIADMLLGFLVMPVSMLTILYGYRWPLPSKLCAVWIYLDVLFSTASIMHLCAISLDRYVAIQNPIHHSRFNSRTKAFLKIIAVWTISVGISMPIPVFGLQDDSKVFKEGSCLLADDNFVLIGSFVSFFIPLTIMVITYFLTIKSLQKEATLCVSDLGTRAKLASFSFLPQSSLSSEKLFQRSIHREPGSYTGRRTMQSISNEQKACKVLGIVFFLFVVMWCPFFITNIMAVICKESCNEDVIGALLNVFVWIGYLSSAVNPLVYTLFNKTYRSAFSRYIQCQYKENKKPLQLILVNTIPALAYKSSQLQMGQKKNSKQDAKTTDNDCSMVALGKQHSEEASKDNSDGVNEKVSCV

# Sample 1
# Cell line: HEK-293T/ACE2
# Concentration: 10 µM
# Time: 16 h
# Relative to: vehicle
Compound,viability
OC[C@H]1O[C@@H](O[C@@H]2[C@@H](CO)OC(O)(CO)[C@H]2O)[C@H](O)[C@@H](O)[C@H]1O (mixture of isomers),97.6%
CCCNC(C)C(=O)Nc1c(C)csc1C(=O)OC (stereo not shown),100%
Cc1ccc(C)c(OCCCC(C)(C)C(=O)O)c1,100%
CC(C)c1nc(N(C)S(C)(=O)=O)nc(-c2ccc(F)cc2)c1/C=C/[C@@H](O)C[C@@H](O)CC(=O)O,100%
Nc1ccncc1,102%

# Sample 2
# Cell line: HEK-293T-ACE2-TMPRSS2
# Technique: cell count
# Concentration: 10 µM
SMILES,viability [%]
CC(C)CN1CC(C(=O)NCCS(=O)(=O)N2CCCC2)CC1=O (stereo not shown),65
CN(C)c1ccc(C(=C2C=CC(=[N+](C)C)C=C2)c2ccc(N(C)C)cc2)cc1,131
CCOC(=O)N1CCN(C2CCCN(C(=O)CCCc3cccs3)C2)CC1 (stereo not shown),103
CCS(=O)(=O)N1C[C@@H](COC)[C@H](c2ccncc2)C1,106
CCc1ccc(NC(=O)c2cnc(N3CCN(c4ccccn4)CC3)c3ccccc23)cc1,71
NC(=S)N/N=C/c1ncc(C(F)(F)F)cc1Cl,73

# Sample 3
# Target: HLA class I histocompatibility antigen, A alpha chain, allele A*25:01 (Homo sapiens, UniProt P04439)
# Read-out: peptide-MHC binding
# Molecule type: peptide
# Concentration: concentration not given
Molecule,binding
GSGDDTWLI,inactive
SLFGAAVSL,inactive
RAYAAMHLW,inactive
RQSSGSSSSGF,inactive
FHIVNQESL,inactive
KQIPIWLPL,inactive
RVHFHRFMY,inactive
AARHKHQVM,inactive

# Other studies, line by line
Compound,target,test,setting,measurement,result
O=C1CCc2cc(Nc3cc(OC4CCOCC4)c([N+](=O)[O-])cc3Cl)ccc2N1,"5-hydroxytryptamine receptor 2C (HTR2C, Homo sapiens, UniProt P28335)","binding, radioligand binding",10 µM,inhibition,-11.9%
CS(=O)(=O)N1CCCC(NC(=O)[C@H](CCC2CCCCC2)NC(=O)c2ccc(CNc3ncnc4c3nnn4-c3ccccc3)cc2)C1 (stereo partly shown),"Cyclin-dependent kinase 2 homolog (CRK2, Plasmodium falciparum, UniProt P61075)","cell-free assay, competition with immobilised ligand",0.1 µM,remaining binding,100%
CN1CCN(C(=O)C(C)(C)c2ccc(C(=O)Nc3cn4cc(-c5ccncc5)ccc4n3)cc2)CC1,"5-hydroxytryptamine receptor 2A (HTR2A, Homo sapiens, UniProt P28223)","binding, radioligand binding",10 µM,inhibition,-2.63%

# For quick reference, copied from above (sample 1):
Compound,viability
Nc1ccncc1,102%
OC[C@H]1O[C@@H](O[C@@H]2[C@@H](CO)OC(O)(CO)[C@H]2O)[C@H](O)[C@@H](O)[C@H]1O (mixture of isomers),97.6%
Cc1ccc(C)c(OCCCC(C)(C)C(=O)O)c1,100%
